Measured values from different studies.
Several values in a cell are separate wells, animals, samples, runs or records. ± marks the error that the study gave.

Structure (SMILES) = O=C([O-])CN1CCN(CC(=O)[O-])CCN(CC(=O)NC[C@H]2CC[C@H](C(=O)N[C@H](Cc3cnc4ccccc4c3)C(=O)NCCCC[C@H](NC(=O)N[C@@H](CCC(=O)O)C(=O)O)C(=O)O)CC2)CCN(CC(=O)[O-])CC1.[64Cu+2]; assay = ex vivo gamma counting; test system = 22Rv1 tumour-bearing mice, stomach; conditions = intravenous, 0.74 MBq, 6 h post-injection; tissue uptake = 12.9 %ID/g
Structure (SMILES) = COc1ccc(Nc2nc(Nc3ccc(OCCOCCOCC[18F])cc3)ncc2Br)cc1; test system = ICR mice, S180 tumour, stomach; conditions = intravenous, 370 kBq, 5 min; tissue uptake = 1.54 ± 0.08 %ID
Structure (SMILES) = Cc1cc(C)n(CCN(CCN)CCCCCCNC(=O)[C@@H](N)Cc2c[nH]cn2)n1.[99Tc+].[C-]#[O+].[C-]#[O+].[C-]#[O+]; test system = BALB/c nude mice, A549 xenograft, intestine; conditions = intravenous, 15 min; tissue uptake = 11.4 ± 1.21 %IA/g
Structure (SMILES) = N#C[C@@H]1CCCN1C(=O)CNC(=O)c1ccnc2ccc(OCCCN3CCN(C(=O)CCc4ccc5c(c4)CN4CCN(Cc6cc(CCC(=O)O)ccc6O)CC(=O)[O][Al-]([18F])([O]C(=O)C4)[O]5)CC3)cc12 (stereo partly drawn); test system = BALB/c nude mice, U-87 MG tumour, gallbladder; conditions = 120 min post-injection; tissue uptake = 14.7 ± 8.32 %ID/g
Structure (SMILES) = Cc1cc(C)n(CCN(CCN)CCCCCCNC(=O)[C@@H](N)Cc2c[nH]c3ccccc23)n1.[99Tc+].[C-]#[O+].[C-]#[O+].[C-]#[O+]; test system = BALB/c nude mice, A549 xenograft, pancreas; conditions = intravenous, 15 min; tissue uptake = 1 ± 0.09 %IA/g
Structure (SMILES) = CCCC[C@H](NC(=O)CNC(=O)CNC(=O)[C@H](CCCCNC(=O)C(C)c1ccc(CC(C)C)cc1)NC(=O)CN1CCN(CC(=O)O)CCN(CC(=O)O)CCN(CC(=O)O)CC1)C(=O)N[C@H]1CC(=O)NCCCC[C@@H](C(N)=O)NC(=O)[C@H](Cc2c[nH]c3ccccc23)NC(=O)[C@H](CCCNC(=N)N)NC(=O)[C@@H](Cc2ccccc2)NC(=O)[C@H](Cc2c[nH]cn2)NC1=O (stereo partly drawn) [lutetium-177 labelled]; test system = C57 mice, tumour-bearing, blood; conditions = 2 h; tissue uptake = 1.27 ± 0.26 %ID/g
Structure (SMILES) = O=C(NCC1OC2CCC=CCCC2O1)c1ccc(COCCOCCOCC[18F])cc1 (stereo not drawn); test system = healthy female BALB/c nude mice, skin; conditions = intravenous, 7.4 MBq per mouse, 15 min; tissue uptake = 3.2 ± 0.1 %ID/g
Structure (SMILES) = COc1ccc(Nc2nc(Nc3ccc(OCCOCC[18F])cc3)ncc2Br)cc1; test system = ICR mice, S180 tumour-bearing, brain; conditions = intravenous, 370 kBq, 120 min; tissue uptake = 1.83 ± 0.32 %ID/g
Structure (SMILES) = O=C(NCC1OC2CCC=CCCC2O1)c1ccc([18F])nc1 (stereo not drawn); test system = female BALB/c nude mice, LS174T tumour, kidneys; conditions = intravenous, 60 min, together with: unmodified CC49 24 h before; tissue uptake = 2.2 ± 0.7 %ID/g
Structure (SMILES) = N#C[C@@H]1CCCN1C(=O)CNC(=O)c1ccnc2ccc(OCCCN3CCN(C(=O)CCc4ccc(O)c(CN5CCN6CC(=O)[O][Al-]([18F])([O]C(=O)C5)[O]c5ccc(CCC(=O)N7CCN(CCCOc8ccc9nccc(C(=O)NCC(=O)N%10CCC[C@H]%10C#N)c9c8)CC7)cc5C6)c4)CC3)cc12 (stereo partly drawn); test system = BALB/c nude mice, U-87 MG xenograft, gallbladder; conditions = 1 h, blocked 60 min, together with: DOTA-FAPI-04 40 nmol co-injected; tissue uptake = 142 ± 37.6 %ID/g
Structure (SMILES) = COc1ccc2c(c1)C(C)(C)C(/C=C/C1=C(Oc3ccc(C(=O)NCCCCOc4cc(CN(Cc5ccccn5)Cc5ccccn5)cc(CN(Cc5ccccn5)Cc5ccccn5)c4)cc3)C(=C/C=C3/N(CCCCS(=O)(=O)[O-])c4ccc(OC)cc4C3(C)C)CCC1)=[N+]2CCCCS(=O)(=O)[O-].O=[N+]([O-])[O-].O=[N+]([O-])[O-].[99Tc+].[C-]#[O+].[C-]#[O+].[C-]#[O+].[Zn+2]; test system = healthy BALB/c mice, heart; conditions = 12 h; tissue uptake = 1.43 %ID/g and 1.18 %ID/g and 1.28 %ID/g and 1.42 %ID/g
Structure (SMILES) = CCCC[C@H](NC(=O)COCCOCCNC(=O)CN1CCN(CC(=O)O)CCN(CC(=O)O)CC1)C(=O)N[C@H]1CC(=O)NCCCC[C@@H](C(N)=O)NC(=O)[C@H](Cc2c[nH]c3ccccc23)NC(=O)[C@H](CCCNC(=N)N)NC(=O)[C@@H](Cc2ccccc2)NC(=O)[C@H](Cc2c[nH]cn2)NC1=O [fluorine-18 labelled]; test system = C57 mice, B16/F10 melanoma, lung; conditions = intravenous, 1 h, together with: NDP-MSH 10 µg; tissue uptake = 0.86 ± 0.38 %ID/g
Structure (SMILES) = CCCC[C@H](NC(=O)CNC(=O)CNC(=O)[C@H](CCCCNC(=O)[C@H](CCN)NC(=O)C(C)c1ccc(CC(C)C)cc1)NC(=O)CN1CCN(CC(=O)O)CCN(CC(=O)O)CCN(CC(=O)O)CC1)C(=O)N[C@H]1CC(=O)NCCCC[C@@H](C(N)=O)NC(=O)[C@H](Cc2c[nH]c3ccccc23)NC(=O)[C@H](CCCNC(=N)N)NC(=O)[C@@H](Cc2ccccc2)NC(=O)[C@H](Cc2c[nH]cn2)NC1=O (stereo partly drawn) [lutetium-177 labelled]; test system = C57 mice, tumour-bearing, blood; conditions = 2 h; tissue uptake = 0.19 ± 0.06 %ID/g
Structure (SMILES) = CCCC[C@H](NC(=O)CCCCCCCNC(=O)CN1CCN(CC(=O)O)CCN(CC(=O)O)CC1)C(=O)N[C@H]1CC(=O)NCCCC[C@@H](C(N)=O)NC(=O)[C@H](Cc2c[nH]c3ccccc23)NC(=O)[C@H](CCCNC(=N)N)NC(=O)[C@@H](Cc2ccccc2)NC(=O)[C@H](Cc2c[nH]cn2)NC1=O [fluorine-18 labelled]; test system = C57 mice B16-F10 melanoma, skin; conditions = intravenous, 0.37 MBq, 2 h; tissue uptake = 1.09 ± 0.33 %ID/g
Structure (SMILES) = CC(C)C[C@H](NC(=O)[C@@H](CCCCNC(=O)[C@@H](Cc1ccccc1)NC(=O)CCCCCCCNC(=O)CN1CCN(CC(=O)O)CCN(CC(=O)O)CCN(CC(=O)O)CC1)NC(=O)[C@H](Cc1ccc(O)cc1)NC(=O)[C@H](CO)NC(=O)[C@H](Cc1c[nH]c2ccccc12)NC(=O)[C@H](Cc1c[nH]cn1)NC(=O)[C@@H]1CCC(=O)N1)C(=O)N[C@@H](CCCNC(=N)N)C(=O)N1CCC[C@H]1C(=O)NCC(N)=O [indium-111 labelled]; assay = biodistribution; test system = male athymic nude mice, DU-145 prostate cancer xenograft, muscle; conditions = intravenous, 0.037 MBq, 1 h post-injection; tissue uptake = 0.27 ± 0.08 %ID/g
